Assay results from different studies.
Lines come from different studies, so protocols differ.
HTR1A: 5-hydroxytryptamine receptor 1A (HTR1A, Homo sapiens, UniProt P08908)
UniProt P08908, sequence (whole entry, looked up): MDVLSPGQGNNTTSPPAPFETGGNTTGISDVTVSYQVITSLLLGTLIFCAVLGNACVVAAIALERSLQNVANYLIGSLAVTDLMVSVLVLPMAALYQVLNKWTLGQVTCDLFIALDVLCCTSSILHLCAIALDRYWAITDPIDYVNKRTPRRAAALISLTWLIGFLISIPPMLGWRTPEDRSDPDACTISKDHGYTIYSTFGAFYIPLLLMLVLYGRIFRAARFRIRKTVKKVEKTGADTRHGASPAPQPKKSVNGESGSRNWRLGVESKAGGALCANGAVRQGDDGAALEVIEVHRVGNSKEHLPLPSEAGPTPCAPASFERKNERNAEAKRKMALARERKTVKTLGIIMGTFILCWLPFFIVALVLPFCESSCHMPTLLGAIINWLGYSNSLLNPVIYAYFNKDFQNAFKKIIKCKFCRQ
Oprd1: Delta-type opioid receptor (Oprd1, Rattus norvegicus, UniProt P33533)
UniProt P33533, sequence (whole entry, looked up): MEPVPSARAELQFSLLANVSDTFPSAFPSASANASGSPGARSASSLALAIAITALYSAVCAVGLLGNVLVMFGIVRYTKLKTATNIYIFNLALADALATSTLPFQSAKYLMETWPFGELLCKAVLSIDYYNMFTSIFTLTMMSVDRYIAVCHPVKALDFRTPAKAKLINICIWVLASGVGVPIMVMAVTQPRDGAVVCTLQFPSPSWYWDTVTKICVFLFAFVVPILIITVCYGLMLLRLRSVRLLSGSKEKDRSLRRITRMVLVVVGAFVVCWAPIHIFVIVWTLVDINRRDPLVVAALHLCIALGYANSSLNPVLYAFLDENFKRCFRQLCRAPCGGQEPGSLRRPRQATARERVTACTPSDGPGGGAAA
UniProt P50406, sequence (whole entry, looked up): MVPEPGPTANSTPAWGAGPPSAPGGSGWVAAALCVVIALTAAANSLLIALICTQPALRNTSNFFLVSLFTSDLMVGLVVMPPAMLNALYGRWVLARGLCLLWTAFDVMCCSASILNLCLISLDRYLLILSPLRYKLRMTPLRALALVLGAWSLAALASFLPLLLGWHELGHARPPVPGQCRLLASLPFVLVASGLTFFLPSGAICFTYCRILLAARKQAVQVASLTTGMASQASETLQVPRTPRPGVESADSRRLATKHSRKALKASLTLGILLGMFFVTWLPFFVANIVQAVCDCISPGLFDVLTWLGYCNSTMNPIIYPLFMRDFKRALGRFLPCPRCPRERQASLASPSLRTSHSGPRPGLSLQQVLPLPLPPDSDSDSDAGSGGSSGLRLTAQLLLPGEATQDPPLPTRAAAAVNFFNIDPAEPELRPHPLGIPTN
UniProt P08588, sequence (whole entry, looked up): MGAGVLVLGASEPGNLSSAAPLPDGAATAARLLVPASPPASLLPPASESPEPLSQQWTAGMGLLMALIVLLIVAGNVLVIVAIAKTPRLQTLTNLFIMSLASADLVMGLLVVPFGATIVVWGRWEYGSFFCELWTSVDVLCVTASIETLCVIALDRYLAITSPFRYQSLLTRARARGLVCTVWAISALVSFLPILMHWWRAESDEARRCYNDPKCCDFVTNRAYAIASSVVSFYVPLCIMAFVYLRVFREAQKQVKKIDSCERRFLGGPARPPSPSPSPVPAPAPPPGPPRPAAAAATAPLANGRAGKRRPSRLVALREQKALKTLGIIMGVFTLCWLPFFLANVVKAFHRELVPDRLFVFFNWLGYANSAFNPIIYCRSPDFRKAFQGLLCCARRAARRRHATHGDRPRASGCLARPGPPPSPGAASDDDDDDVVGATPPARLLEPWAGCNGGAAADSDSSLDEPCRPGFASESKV

Compound | target | assay | conditions | Ki [nM]
O=C1c2ccccc2CCCN1CCCCN1CCN(c2cccc(Cl)c2Cl)CC1 | HTR1A | ligand displacement, radioligand | – | 1.3
COc1cc2c(cc1O)C(CCc1ccc(Cl)cc1)N(C)CC2 (centres unmarked) | 5-hydroxytryptamine receptor 6 (HTR6, Homo sapiens, UniProt P50406) | cell-free assay, radioligand | – | 1900
Cc1cc(O)cc(C)c1C[C@H](N)C(=O)N[C@@H]1C/C=C\CC[C@@H](C(N)=O)NC(=O)[C@H](Cc2ccccc2)NC(=O)[C@H](Cc2ccccc2)NC1=O | Oprd1 | ligand displacement, radioligand | cell membranes | 0.491
N=C(N)NCCC[C@@H]1NC(=O)[C@@H](Cc2ccc(O)cc2)NC(=O)[C@@H](CCCCN)NC(=O)[C@@H](Cc2ccccc2)NC1=O | Oprd1 | ligand displacement, radioligand | cell membranes | 2490
CN(C)[C@H](CNC(=O)/C=C/c1cccc2ccccc12)Cc1ccc(O)cc1 | HTR1A | cell-free assay | – | 10000
NC(=O)[C@@H]1CC/C=C/C[C@@H](NC(=O)[C@@H](N)Cc2ccc(O)cc2)C(=O)N[C@@H](Cc2ccccc2)C(=O)N[C@@H](Cc2ccccc2)C(=O)N1 | Oprd1 | ligand displacement, radioligand | cell membranes | 1.53
C[C@@H](Cc1ccsc1)NC(=O)NC[C@H](Cc1ccc(O)cc1)N(C)C | Beta-1 adrenergic receptor (ADRB1, Homo sapiens, UniProt P08588) | cell-free assay | – | > 50000
CC[C@@H]1NC(=O)[C@H](CCCNC(=N)N)NC(=O)[C@H](NC(=O)C(C)C)CCNC(=O)c2cc(F)c(c(F)c2)N=Nc2c(F)cc(cc2F)C(=O)NCCNC(=O)[C@@H](Cc2ccccc2)NC1=O | WD repeat-containing protein 5 (WDR5, Homo sapiens, UniProt P61964) | binding, inhibitor, competitive fluorescence polarization | cis isomer, 520 nm photostationary state | 8

A few entries again:
Compound | target | assay | conditions | Ki [nM]
C[C@@H](Cc1ccsc1)NC(=O)NC[C@H](Cc1ccc(O)cc1)N(C)C | Beta-1 adrenergic receptor (ADRB1, Homo sapiens, UniProt P08588) | cell-free assay | – | > 50000
